Results from different studies.

`CN1CC[C@@H](c2c(O)cc(O)c3c(=O)cc(-c4ccc(C(F)(F)F)cc4Cl)oc23)[C@@H]1CO`: “significantly deregulated genes” 50 genes (RNA-seq; PBMC, human, AML; 100 to 200 mg, 8 days, 6 patients).
`COc1cc2cc(-c3ccc(CC(=O)Nc4cc(C(C)(C)C(F)(F)F)no4)cn3)cnc2cc1OC`: “best overall response PD” 23% (RECIST v1.1; human RET-altered solid tumours; dose not given, phase I parts A and B).
`N#Cc1ccc2c(-c3ccncc3)c(-c3ccc(F)cc3)nn2c1` — result for “log2 fold change”: -0.436 (kinase binding, competitor, MIB/MS competition, refers to: RIO2; Candida albicans cell lysate; 1 µM; baseline: DMSO).
For `C[C@H]1C[C@H]2CSC(N)=N[C@@]2(c2nc(NC(=O)c3ccc(OC(F)F)cn3)cs2)CO1`, “percent change from baseline” read -43.9% (refers to: total Aβ; healthy adults, plasma; 12 mg single dose, 24 h post-dose; baseline: placebo).
`Cc1cc(C)c(CNC(=O)c2cc(Cl)c3c(c2C)O[C@@](C)([C@H]2CC[C@H](N(C)C)CC2)O3)c(=O)[nH]1` — result for “best overall response PR”: 15.4% (relapsed/refractory NHL patients, PTCL; oral, dose not given).
`O=S(=O)(NCCNC/C=C/c1ccc(Br)cc1)c1cccc2cnccc12` — result for “embryos reaching 8-cell”: 0% (mouse zygotes; 20 µM, 96 h post-hCG).
`Cc1cc(C)c(CNC(=O)c2cc(Cl)c3c(c2C)O[C@@](C)([C@H]2CC[C@H](N(C)C)CC2)O3)c(=O)[nH]1`: “best response not evaluable” 0% (IWG criteria; relapsed/refractory PTCL-NOS patients; dose not given).
`CCOc1c([C@H](C)n2nc(C)c3c(N)ncnc32)cc(Cl)c(F)c1[C@@H]1CNC(=O)C1` — result for “plasma protein level change”: -61% (Olink proximity extension proteomics, refers to: TNFRSF4; human FL or MZL patients, plasma; dose not given, week 8; baseline: baseline).
`c1ccc(-c2n[nH]cc2-c2ccnc3ccccc23)nc1` — result for “log2 fold change”: 1.02 (kinase binding, competitor, MIB/MS competition, refers to: NIK1; Candida albicans cell lysate; 10 µM; baseline: DMSO).
`CC(C)[C@H](NC(=O)[C@H](Cc1ccc(O)cc1)NC(=O)[C@H](Cc1ccc(O)cc1)NC(=O)[C@@H]1CCCN1C(=O)[C@H](CCC(=O)O)NC(=O)[C@H](CCC(=O)O)NC(=O)[C@H](Cc1c[nH]c2ccccc12)NC(=O)[C@@H]1CCCN1C(=O)[C@@H](NC(=O)[C@H](CCC(N)=O)NC(=O)c1ccc2c(c1)C(=O)OC21c2ccc(O)cc2Oc2cc(O)ccc21)C(C)C)C(=O)N[C@H](C(=O)N[C@@H](CCCCN)C(=O)N[C@@H](CCCCN)C(=O)N[C@@H](CO)C(=O)N[C@@H](CO)C(=O)NCC(=O)NCC(N)=O)C(C)C`: “share of responses” 7.1% (nerve trajectory; human head and neck surgery, nerves; 500 mg, much improved; baseline: white light).
`C[C@H](Oc1ccc(Br)cc1-c1ccon1)C(=O)O` — result for “difference from placebo”: 3.33% (first response peak; human, tibialis anterior muscle; 1200 mg, 15 Hz, single ascending dose).
The sarcomere length of `O=C(O)CNC(=O)Cc1ccccc1` is reported as 1.62 µm (ventricular cardiomyocytes, C57BL/6 mouse; dose not given, 0.536 s).
`NC(=O)c1cnc2[nH]ccc2c1N[C@@H]1[C@@H]2CC3C[C@H]1C[C@@](O)(C3)C2`: “change from baseline” 0.05% (flow cytometry, refers to: CD4+ effector memory T cells; Japanese healthy subjects, peripheral blood; oral, 30 mg twice daily, day 7).
`COc1cc(O)c(CC=C(C)C)c(O)c1C(=O)/C=C/c1ccc(O)cc1` has a blood glucose of 303 mg/dL (glucose tolerance test; male Tac:SW germ-free mice, high-fat diet; in diet, 60 mg/kg/day, 10 weeks, 60 min after glucose load).
`O=C1Nc2cc3[nH]nc(-c4ccncc4)c3cc2CN1Cc1ccccc1` — result for “stable disease, best response”: 100% (RECIST v1.1; human, relapsed or refractory advanced solid tumours; intravenous, 3.6 mg/kg).
`NCC(=O)Nc1cncc(-c2nn3c(=O)cc(N4CCNCC4)nc3s2)c1` has an inhibition of 28.6% (ADP-induced platelet aggregation, light transmission aggregometry; human, stable CAD on aspirin, ex vivo platelets; subcutaneous, 0.04 mg/kg, 60 min post-dose, median value, with: ADP 20 µM).
`O=C1CCc2ccc(OCCCCN3CCN(c4cccc(Cl)c4Cl)CC3)cc2N1`: “discontinuation or switching rate” 29% (patients; dose not given, 3 months, CYP2D6 pPM and UM).
`OC[C@H]1O[C@@H](c2ccc(Cl)c(Cc3ccc(O[C@H]4CCOC4)cc3)c2)[C@H](O)[C@@H](O)[C@@H]1O` — result for “diastolic blood pressure change”: 1.5 mmHg (Japanese type 1 diabetes patients; 25 mg, day 28, 672 h; baseline: baseline).

A few entries again:
`NCC(=O)Nc1cncc(-c2nn3c(=O)cc(N4CCNCC4)nc3s2)c1` has an inhibition of 28.6% (ADP-induced platelet aggregation, light transmission aggregometry; human, stable CAD on aspirin, ex vivo platelets; subcutaneous, 0.04 mg/kg, 60 min post-dose, median value, with: ADP 20 µM).
`O=C1CCc2ccc(OCCCCN3CCN(c4cccc(Cl)c4Cl)CC3)cc2N1`: “discontinuation or switching rate” 29% (patients; dose not given, 3 months, CYP2D6 pPM and UM).
